Measured values collected from several papers.
Compare with care: the assays were run in different laboratories. ± marks the error that the study gave.
FGFR1: Fibroblast growth factor receptor 1 (FGFR1, Homo sapiens, UniProt P11362)
UniProt P11362, sequence (whole entry, looked up): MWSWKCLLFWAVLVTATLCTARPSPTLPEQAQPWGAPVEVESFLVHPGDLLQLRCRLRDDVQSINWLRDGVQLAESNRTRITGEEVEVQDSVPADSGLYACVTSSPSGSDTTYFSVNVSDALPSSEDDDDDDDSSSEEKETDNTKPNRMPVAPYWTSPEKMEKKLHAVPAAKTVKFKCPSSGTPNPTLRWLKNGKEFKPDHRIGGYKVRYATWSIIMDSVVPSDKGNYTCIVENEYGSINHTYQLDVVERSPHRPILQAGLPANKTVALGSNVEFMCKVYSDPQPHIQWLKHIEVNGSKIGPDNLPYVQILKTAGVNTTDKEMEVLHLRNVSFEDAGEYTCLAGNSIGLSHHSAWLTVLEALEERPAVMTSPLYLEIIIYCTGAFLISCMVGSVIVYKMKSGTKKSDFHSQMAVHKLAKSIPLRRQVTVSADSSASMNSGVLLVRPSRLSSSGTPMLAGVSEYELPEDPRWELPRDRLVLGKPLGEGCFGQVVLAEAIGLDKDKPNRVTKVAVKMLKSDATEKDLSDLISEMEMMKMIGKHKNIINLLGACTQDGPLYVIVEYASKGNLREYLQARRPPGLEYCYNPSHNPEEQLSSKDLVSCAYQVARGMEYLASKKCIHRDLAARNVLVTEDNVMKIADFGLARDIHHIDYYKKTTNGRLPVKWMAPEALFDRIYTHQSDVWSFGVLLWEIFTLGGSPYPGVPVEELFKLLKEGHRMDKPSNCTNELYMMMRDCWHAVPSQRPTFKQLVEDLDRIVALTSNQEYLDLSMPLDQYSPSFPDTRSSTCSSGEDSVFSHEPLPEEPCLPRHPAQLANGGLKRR
UniProt Q9UNW8, sequence (whole entry, looked up): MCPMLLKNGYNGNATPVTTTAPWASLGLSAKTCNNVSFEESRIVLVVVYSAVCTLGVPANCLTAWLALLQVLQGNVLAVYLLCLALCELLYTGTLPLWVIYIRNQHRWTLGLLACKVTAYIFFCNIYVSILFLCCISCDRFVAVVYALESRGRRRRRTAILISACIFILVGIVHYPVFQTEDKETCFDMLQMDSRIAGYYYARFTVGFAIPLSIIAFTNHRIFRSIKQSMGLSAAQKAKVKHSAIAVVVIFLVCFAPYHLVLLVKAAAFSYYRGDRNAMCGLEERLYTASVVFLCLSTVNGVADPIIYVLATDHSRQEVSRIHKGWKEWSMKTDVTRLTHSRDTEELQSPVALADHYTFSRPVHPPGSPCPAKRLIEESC
UniProt O14746, sequence (whole entry, looked up): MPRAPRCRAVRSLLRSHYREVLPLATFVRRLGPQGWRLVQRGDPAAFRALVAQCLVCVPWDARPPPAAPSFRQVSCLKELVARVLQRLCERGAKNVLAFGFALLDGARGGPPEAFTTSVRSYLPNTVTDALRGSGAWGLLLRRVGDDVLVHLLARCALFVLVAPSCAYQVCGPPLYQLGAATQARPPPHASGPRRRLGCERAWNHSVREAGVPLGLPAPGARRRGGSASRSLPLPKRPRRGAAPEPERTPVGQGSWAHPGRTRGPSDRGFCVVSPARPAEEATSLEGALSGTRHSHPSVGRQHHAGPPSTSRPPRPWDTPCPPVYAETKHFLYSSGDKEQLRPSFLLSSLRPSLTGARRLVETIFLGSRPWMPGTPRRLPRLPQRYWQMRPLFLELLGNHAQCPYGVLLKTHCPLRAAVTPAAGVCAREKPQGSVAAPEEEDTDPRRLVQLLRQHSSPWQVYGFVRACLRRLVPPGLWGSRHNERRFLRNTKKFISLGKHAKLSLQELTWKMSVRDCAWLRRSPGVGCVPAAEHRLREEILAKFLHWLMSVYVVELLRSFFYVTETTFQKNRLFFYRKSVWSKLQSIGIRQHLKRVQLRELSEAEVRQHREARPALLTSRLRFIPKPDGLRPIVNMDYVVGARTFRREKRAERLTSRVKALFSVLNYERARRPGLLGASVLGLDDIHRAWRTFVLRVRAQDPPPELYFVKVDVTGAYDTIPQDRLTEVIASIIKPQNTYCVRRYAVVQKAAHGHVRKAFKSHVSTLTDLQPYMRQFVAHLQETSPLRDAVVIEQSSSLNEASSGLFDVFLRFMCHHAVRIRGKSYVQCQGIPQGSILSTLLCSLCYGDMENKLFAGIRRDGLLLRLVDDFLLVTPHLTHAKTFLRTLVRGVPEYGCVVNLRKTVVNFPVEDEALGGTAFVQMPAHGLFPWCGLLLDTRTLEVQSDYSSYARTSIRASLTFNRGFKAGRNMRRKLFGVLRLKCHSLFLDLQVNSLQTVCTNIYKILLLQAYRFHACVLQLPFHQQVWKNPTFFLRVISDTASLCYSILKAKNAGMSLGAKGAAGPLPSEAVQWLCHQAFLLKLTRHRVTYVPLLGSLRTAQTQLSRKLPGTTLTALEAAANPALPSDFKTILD
UniProt P00488, sequence (whole entry, looked up): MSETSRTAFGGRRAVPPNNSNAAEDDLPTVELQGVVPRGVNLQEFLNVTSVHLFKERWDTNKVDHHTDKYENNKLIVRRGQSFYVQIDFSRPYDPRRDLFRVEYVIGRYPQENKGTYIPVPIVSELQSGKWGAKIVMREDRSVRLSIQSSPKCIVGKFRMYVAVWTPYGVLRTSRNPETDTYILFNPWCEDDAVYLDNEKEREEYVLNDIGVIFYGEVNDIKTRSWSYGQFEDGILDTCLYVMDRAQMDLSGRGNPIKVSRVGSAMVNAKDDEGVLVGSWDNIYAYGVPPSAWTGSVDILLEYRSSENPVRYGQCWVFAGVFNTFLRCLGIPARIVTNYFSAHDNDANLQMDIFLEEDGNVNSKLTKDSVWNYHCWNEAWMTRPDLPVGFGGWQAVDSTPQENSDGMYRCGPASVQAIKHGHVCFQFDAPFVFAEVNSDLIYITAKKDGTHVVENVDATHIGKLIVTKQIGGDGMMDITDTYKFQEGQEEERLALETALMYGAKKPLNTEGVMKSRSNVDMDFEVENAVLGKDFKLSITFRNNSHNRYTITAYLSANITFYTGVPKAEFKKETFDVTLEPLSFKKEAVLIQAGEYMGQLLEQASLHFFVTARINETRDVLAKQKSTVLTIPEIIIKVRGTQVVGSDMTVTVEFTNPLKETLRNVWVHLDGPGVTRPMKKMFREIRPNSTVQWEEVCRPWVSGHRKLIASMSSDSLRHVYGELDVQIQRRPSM
UniProt P56450, sequence (whole entry, looked up): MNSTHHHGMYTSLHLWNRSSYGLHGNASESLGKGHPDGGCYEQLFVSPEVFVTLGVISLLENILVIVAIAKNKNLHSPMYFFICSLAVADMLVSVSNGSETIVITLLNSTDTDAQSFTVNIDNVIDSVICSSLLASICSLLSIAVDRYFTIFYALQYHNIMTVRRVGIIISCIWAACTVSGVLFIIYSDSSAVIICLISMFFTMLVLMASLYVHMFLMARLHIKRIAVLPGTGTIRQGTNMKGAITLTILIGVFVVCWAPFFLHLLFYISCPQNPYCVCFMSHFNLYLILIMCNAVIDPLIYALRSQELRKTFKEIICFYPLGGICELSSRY
UniProt O35433, sequence (whole entry, looked up): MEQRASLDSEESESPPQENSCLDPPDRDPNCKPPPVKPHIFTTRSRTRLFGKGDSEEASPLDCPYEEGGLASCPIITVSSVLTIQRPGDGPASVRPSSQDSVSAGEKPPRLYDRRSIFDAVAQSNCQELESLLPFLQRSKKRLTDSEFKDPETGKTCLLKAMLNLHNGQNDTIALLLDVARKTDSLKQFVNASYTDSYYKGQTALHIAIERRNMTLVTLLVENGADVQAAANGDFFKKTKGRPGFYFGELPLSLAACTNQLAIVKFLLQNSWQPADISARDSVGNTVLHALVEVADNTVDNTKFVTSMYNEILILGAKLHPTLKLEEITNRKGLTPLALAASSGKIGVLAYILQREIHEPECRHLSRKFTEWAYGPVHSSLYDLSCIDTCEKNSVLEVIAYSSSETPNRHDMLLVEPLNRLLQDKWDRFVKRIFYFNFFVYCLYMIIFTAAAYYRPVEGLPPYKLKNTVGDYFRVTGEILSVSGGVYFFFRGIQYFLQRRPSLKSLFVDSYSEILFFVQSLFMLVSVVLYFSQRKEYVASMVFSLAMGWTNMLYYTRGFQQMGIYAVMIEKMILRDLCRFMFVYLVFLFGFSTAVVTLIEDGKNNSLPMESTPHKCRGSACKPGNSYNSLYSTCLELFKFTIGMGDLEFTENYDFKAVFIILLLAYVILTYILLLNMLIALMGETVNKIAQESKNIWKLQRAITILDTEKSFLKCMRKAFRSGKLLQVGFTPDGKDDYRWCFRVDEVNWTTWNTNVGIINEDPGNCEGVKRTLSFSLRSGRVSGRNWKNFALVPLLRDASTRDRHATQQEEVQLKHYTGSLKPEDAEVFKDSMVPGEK
UniProt Q96JM7, sequence (whole entry, looked up): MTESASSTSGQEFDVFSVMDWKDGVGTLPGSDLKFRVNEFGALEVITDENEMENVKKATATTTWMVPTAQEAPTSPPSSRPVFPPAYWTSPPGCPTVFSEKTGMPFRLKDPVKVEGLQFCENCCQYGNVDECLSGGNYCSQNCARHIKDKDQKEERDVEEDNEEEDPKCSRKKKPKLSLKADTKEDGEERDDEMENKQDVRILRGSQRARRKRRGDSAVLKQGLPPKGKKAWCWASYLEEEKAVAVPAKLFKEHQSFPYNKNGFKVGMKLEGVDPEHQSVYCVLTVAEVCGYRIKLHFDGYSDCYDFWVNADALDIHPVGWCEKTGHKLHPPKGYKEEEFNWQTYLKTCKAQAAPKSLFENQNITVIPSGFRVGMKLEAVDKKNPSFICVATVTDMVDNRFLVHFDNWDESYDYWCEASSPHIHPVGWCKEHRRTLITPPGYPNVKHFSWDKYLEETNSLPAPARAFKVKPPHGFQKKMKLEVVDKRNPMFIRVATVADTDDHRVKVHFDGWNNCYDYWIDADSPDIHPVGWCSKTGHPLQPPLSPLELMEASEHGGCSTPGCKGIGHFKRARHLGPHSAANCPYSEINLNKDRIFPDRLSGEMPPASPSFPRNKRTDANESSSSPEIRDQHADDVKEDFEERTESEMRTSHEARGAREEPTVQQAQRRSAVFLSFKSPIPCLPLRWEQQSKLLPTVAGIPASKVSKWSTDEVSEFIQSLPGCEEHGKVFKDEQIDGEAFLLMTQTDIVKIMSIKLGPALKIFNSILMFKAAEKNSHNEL

| SMILES | target | assay | system | setting | IC50 |
| --- | --- | --- | --- | --- | --- |
| COc1cc(N2CCN(C)CC2)ccc1Nc1ncc2c(n1)N(C)c1ccc(C)cc1C(=O)N2CC(F)(F)F | LRRK2 (Homo sapiens, UniProt Q5S007) | enzyme activity, inhibitor |  |  | > 10000 nM |
| CC(=O)N[C@@H](Cc1cnc[nH]1)C(=O)N[C@H](Cc1ccccc1)C(=O)N[C@@H](CCCNC(=N)N)C(=O)N[C@@H](Cc1c[nH]c2ccccc12)C(=O)NCCCOCCOCCOCCCNC(=O)COCC(=O)N[C@@H](Cc1cnc[nH]1)C(=O)N[C@H](Cc1ccccc1)C(=O)N[C@@H](CCCNC(=N)N)C(=O)N[C@@H](Cc1c[nH]c2ccccc12)C(N)=O | Melanocortin receptor 4 (Mus musculus, UniProt P56450) | ligand displacement, radioligand |  |  | 7.5 nM |
| O=C(O)[C@@H]1Cc2c([nH]c3ccccc23)[C@@H](c2ccc(F)cc2Cl)N1 | MEP cytidylyltransferase IspD (Plasmodium falciparum, UniProt Q8I273) | enzyme activity, inhibitor, fluorimetric pyrophosphate |  | 60 nM enzyme | 100 ± 10 nM |
| O=C(Nc1ccc(F)c(OCc2ccncc2)c1)Nc1ccc(Cl)c(C(F)(F)F)c1 | DDR1 (Homo sapiens, UniProt Q08345) | enzyme activity, inhibitor, mobility shift |  |  | 1010 nM |
| CCC1(CC)C[C@@H](NC(=O)Nc2cccc3c(C)nccc23)c2cc(F)ccc2O1 | Trpv1 (Rattus norvegicus, UniProt O35433) | calcium influx, antagonist, FLIPR | HEK293 expressing rat TRPV1 | with: N-arachidonoyl-dopamine 3 µM | 112 nM |
| COc1cc2nccc(Oc3ccc(NC(=S)NCCN(C)C)c(Cl)c3)c2cc1C(N)=O | FGFR1 |  |  |  | 6760 nM |
| CC[C@H](C)[C@H](NC(=O)[C@H](CO)NC(=O)[C@H](Cc1ccc(O)cc1)NC(=O)[C@H](CC(=O)O)NC(=O)[C@H](CO)NC(=O)[C@@H](NC(=O)[C@H](Cc1ccccc1)NC(=O)[C@@H](NC(=O)CNC(=O)[C@@H]1CCCN1C(=O)[C@H](C)NC(=O)[C@@H](N)Cc1ccc(O)cc1)[C@@H](C)O)[C@@H](C)CC)C(=O)N[C@@H](C)C(=O)N[C@@H](CCSC)C(=O)N[C@@H](CC(=O)O)C(=O)N[C@@H](CCCCN)C(=O)N[C@H](C(=O)N[C@@H](Cc1c[nH]cn1)C(=O)N[C@@H](CCC(N)=O)C(=O)N[C@@H](CCC(N)=O)C(=O)N[C@@H](CC(=O)O)C(=O)N[C@@H](Cc1ccccc1)C(=O)N[C@H](C(=O)N[C@@H](CC(N)=O)C(=O)N[C@@H](Cc1c[nH]c2ccccc12)C(=O)N[C@@H](CC(C)C)C(=O)N[C@@H](CC(C)C)C(=O)N[C@@H](C)C(=O)N[C@@H](CCC(N)=O)C(=O)N[C@@H](CCCCN)C(=O)NCC(=O)N[C@@H](CCCCN)C(=O)N[C@@H](CCCCN)C(=O)N[C@@H](CC(N)=O)C(=O)N[C@@H](CC(=O)O)C(=O)N[C@@H](Cc1c[nH]c2ccccc12)C(=O)N[C@@H](CCCCN)C(=O)N[C@@H](Cc1c[nH]cn1)C(=O)N[C@@H](CC(N)=O)C(=O)N[C@H](C(=O)N[C@H](C(=O)N[C@@H](CCC(N)=O)C(=O)O)[C@@H](C)O)[C@@H](C)CC)C(C)C)[C@@H](C)CC | GIPR (Homo sapiens, UniProt P48546) | ligand displacement in cells, radioligand |  |  | 10 nM |
| CC(C)(C)NCCCNC(=O)c1ccnc(C(F)(F)F)c1 | Lethal(3)malignant brain tumor-like protein 3 (Homo sapiens, UniProt Q96JM7) | methyl-lysine reader binding, inhibitor, AlphaScreen |  |  | > 100000 nM |
| CCCCCCCc1ccc(S(=O)(=O)N2CC2C(=O)OC)cc1 (centres unmarked) | P4HB (Homo sapiens, UniProt P07237) | enzyme activity, inhibitor, absorbance |  | pH 7.6 | 70 nM |
| O=C(C[C@H](Cc1ccc(O)cc1)n1cc(CNS(=O)(=O)c2ccc(-c3ccccc3)s2)nn1)NO | ERAP2 (Homo sapiens, UniProt Q6P179) | enzyme activity, inhibitor, fluorescence |  |  | 3000 nM |
| FC(F)(F)c1ccccc1/N=c1\oc2ccccc2cc1-c1ccccc1 | PTGS2 (Homo sapiens, UniProt P35354) | enzyme activity, inhibitor |  |  | 7.8 nM |
| Cc1ccc(C(=O)Nc2ccc(CP(=O)(O)O)cc2CP(=O)(O)O)cc1NC(=O)c1cccc(NC(=O)Nc2cccc(C(=O)Nc3cc(C(=O)Nc4ccc(CP(=O)(O)O)cc4CP(=O)(O)O)ccc3C)c2)c1 | F13A1 (Homo sapiens, UniProt P00488) | enzyme activity, inhibitor, fluorescence |  |  | > 200000 nM |
| [N-]=[N+]=N[C@H]1C[C@H](n2cnc3c(N)nc(N)nc32)O[C@@H]1COP(=O)(O)OP(=O)(O)OP(=O)(O)O | TERT (Homo sapiens, UniProt O14746) | enzyme activity, inhibitor, stretch PCR |  | with: competing dNTP 10 µM | 8000 nM |
| CCCCn1c(-c2ccc3nn(CCC)c(Cc4ccc(-c5ccccc5-c5nn[nH]n5)cc4)c3c2)nc2ccccc21 | GPR132 (Homo sapiens, UniProt Q9UNW8) | β-arrestin recruitment, antagonist |  |  | 15.8 nM |
| COc1cc2nccc(Oc3ccc(NC(=S)NCCC#N)c(Cl)c3)c2cc1C(N)=O | FGFR1 |  |  |  | 1930 nM |
| Cc1ccc(CNC(=O)[C@H](CCc2ccccc2)NC(=O)[C@H](CCc2ccccc2)NC(=O)Cc2cccc(Oc3ccccc3)c2)cc1 | Proteasome subunit beta type-10 / Proteasome subunit beta type-3 (Homo sapiens, UniProt P40306+P49720) | inhibitor |  |  | > 100000 nM |
| COc1ccc(-c2nc(Nc3nc4ccccc4o3)ncc2C#N)cc1 | Grm5 (Rattus norvegicus, UniProt P31424) | calcium signal, antagonist |  |  | 223 nM |

Some of these lines once more:
| SMILES | target | assay | system | setting | IC50 |
| --- | --- | --- | --- | --- | --- |
| CCC1(CC)C[C@@H](NC(=O)Nc2cccc3c(C)nccc23)c2cc(F)ccc2O1 | Trpv1 (Rattus norvegicus, UniProt O35433) | calcium influx, antagonist, FLIPR | HEK293 expressing rat TRPV1 | with: N-arachidonoyl-dopamine 3 µM | 112 nM |
